Measured values from different studies.
± marks the error that the study gave.
Tubulin alpha/beta heterodimer: Tubulin alpha/beta heterodimer (Leishmania infantum, UniProt A0A381MCS3+A4HTR0)
ESR1: Estrogen receptor (ESR1, Homo sapiens, UniProt P03372)
LATS2: Serine/threonine-protein kinase LATS2 (LATS2, Homo sapiens, UniProt Q9NRM7)
IDO1: Indoleamine 2,3-dioxygenase 1 (IDO1, Homo sapiens, UniProt P14902)

The chains behind the UniProt entries cited, without tags or fusion partners. Residues count along the entry.
UniProt P03372, whole entry: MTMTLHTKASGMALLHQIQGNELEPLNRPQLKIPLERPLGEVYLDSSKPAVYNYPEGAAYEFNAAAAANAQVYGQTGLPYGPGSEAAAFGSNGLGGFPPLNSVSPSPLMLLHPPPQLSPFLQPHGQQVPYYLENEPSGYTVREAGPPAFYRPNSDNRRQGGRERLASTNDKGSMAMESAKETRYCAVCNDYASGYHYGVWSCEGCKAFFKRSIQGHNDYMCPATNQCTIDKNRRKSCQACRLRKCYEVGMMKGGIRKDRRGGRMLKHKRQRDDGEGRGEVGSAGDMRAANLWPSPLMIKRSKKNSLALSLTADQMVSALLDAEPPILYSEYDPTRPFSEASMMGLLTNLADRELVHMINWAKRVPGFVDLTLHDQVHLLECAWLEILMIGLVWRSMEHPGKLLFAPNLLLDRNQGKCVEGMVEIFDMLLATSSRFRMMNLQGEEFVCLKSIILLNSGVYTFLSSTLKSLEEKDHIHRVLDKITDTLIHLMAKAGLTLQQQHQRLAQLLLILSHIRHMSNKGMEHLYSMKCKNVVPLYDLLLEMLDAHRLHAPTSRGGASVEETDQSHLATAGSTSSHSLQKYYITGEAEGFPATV
UniProt Q9NRM7, whole entry: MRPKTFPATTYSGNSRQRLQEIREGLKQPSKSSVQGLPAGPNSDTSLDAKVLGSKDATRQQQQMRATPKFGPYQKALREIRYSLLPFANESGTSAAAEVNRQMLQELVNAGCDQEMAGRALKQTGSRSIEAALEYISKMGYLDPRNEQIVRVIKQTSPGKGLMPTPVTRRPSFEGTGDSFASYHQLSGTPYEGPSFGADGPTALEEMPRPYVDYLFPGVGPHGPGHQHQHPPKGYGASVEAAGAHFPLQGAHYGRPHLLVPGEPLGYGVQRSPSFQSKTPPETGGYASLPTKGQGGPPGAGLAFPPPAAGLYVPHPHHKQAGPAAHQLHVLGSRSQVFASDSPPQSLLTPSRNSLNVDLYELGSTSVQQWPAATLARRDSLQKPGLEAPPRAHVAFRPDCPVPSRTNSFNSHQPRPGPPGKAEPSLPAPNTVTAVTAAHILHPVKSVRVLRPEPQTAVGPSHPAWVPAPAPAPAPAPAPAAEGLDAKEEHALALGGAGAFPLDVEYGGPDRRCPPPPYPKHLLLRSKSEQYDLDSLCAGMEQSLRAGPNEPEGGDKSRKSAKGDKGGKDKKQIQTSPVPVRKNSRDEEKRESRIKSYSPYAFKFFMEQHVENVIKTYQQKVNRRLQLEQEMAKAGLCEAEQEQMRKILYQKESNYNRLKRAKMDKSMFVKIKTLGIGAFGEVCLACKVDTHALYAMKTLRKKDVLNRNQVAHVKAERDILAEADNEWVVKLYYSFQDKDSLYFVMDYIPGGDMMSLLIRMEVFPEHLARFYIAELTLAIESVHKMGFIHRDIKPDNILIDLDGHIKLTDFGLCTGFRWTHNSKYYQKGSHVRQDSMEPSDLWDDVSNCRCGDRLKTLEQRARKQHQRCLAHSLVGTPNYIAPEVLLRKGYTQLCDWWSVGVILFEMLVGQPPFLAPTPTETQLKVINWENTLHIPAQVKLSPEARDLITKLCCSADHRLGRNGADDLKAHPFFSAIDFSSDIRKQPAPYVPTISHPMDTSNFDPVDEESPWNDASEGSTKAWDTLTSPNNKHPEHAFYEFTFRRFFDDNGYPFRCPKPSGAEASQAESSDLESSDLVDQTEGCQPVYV
UniProt P14902, whole entry: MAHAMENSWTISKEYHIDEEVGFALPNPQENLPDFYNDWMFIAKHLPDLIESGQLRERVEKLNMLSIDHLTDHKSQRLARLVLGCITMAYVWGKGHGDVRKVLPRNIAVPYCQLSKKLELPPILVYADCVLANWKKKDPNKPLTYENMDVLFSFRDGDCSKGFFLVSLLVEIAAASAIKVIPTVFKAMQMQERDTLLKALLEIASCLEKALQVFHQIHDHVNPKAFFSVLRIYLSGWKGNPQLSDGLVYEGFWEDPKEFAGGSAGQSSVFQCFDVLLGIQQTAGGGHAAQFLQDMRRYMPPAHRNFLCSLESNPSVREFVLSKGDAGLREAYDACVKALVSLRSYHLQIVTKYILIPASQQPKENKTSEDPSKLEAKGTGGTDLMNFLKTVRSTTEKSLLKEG
UniProt P28300, whole entry, looked up: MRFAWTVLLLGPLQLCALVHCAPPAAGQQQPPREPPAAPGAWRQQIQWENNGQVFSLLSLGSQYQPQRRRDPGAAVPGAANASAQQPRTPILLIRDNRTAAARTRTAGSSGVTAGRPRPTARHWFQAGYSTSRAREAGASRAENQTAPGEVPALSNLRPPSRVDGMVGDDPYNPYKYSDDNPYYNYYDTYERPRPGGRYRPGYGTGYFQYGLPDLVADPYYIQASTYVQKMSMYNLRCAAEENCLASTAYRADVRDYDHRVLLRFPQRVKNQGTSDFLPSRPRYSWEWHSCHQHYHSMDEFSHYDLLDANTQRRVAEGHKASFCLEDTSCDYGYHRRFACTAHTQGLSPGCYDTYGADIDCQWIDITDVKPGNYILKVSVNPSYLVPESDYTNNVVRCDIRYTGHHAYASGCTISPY
UniProt P08238, whole entry: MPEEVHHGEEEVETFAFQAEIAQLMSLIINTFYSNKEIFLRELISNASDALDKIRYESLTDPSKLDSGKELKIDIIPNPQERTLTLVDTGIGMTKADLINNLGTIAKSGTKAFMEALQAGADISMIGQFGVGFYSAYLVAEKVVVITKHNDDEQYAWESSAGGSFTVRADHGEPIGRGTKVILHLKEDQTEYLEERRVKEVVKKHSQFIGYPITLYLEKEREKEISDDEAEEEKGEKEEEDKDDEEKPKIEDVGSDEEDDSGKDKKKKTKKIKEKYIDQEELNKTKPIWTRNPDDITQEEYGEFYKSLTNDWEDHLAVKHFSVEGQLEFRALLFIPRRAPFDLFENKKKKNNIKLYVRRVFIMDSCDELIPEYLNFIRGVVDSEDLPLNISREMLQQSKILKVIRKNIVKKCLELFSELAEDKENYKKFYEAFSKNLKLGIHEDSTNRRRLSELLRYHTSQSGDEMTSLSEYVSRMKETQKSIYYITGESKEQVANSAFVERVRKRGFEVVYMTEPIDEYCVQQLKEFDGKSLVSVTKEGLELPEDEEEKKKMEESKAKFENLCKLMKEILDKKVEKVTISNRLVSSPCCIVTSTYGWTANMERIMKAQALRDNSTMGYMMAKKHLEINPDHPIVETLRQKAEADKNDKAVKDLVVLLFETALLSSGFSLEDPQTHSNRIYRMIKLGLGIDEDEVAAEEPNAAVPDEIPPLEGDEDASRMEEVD
UniProt Q9UBN7, whole entry: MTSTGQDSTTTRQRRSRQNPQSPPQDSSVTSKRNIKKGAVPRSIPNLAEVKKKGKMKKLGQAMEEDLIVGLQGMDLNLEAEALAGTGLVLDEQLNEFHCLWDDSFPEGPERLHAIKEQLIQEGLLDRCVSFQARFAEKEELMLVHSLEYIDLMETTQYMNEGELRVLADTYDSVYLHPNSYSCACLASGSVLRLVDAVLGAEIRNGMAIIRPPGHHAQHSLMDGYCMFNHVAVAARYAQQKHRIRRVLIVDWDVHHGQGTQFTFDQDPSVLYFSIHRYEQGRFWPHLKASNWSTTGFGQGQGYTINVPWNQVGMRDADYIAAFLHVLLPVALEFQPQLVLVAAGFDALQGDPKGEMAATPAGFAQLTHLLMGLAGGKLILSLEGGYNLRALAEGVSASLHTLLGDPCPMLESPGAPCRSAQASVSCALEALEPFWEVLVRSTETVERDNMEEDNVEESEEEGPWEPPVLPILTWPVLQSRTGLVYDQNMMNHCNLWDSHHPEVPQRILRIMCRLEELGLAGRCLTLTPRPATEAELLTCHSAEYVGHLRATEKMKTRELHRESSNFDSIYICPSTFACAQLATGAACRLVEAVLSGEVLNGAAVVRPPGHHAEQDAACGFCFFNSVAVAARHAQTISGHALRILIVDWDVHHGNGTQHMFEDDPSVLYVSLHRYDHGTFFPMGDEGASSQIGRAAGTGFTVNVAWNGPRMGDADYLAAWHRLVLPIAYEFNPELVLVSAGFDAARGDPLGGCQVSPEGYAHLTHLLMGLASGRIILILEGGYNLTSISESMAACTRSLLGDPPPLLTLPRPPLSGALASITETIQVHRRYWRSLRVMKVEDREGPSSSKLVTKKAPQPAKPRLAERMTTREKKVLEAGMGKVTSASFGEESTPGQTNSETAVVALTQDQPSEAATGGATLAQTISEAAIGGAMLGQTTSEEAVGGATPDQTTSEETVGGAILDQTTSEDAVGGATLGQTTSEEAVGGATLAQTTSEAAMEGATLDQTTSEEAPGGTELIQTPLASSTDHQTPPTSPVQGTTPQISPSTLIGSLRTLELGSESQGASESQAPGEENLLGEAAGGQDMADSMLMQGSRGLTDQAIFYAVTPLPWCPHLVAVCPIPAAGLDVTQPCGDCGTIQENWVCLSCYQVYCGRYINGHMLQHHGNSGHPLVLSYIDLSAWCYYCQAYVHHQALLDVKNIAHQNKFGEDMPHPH
UniProt O00748, 27-559 limits assumed: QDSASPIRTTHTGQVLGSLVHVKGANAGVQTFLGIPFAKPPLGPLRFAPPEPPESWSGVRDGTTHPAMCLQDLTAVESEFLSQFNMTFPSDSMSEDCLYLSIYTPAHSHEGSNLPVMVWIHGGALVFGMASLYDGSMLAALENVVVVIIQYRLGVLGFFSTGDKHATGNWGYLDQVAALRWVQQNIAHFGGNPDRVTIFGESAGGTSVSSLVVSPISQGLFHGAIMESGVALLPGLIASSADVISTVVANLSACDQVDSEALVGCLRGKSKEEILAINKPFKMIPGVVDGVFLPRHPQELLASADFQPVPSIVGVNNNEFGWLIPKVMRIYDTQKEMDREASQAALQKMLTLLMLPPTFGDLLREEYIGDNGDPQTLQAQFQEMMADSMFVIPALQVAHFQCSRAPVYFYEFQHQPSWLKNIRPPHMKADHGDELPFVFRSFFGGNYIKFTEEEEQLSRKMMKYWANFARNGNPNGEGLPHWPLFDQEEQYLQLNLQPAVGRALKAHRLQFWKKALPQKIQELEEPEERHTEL
UniProt Q2M2I8, whole entry: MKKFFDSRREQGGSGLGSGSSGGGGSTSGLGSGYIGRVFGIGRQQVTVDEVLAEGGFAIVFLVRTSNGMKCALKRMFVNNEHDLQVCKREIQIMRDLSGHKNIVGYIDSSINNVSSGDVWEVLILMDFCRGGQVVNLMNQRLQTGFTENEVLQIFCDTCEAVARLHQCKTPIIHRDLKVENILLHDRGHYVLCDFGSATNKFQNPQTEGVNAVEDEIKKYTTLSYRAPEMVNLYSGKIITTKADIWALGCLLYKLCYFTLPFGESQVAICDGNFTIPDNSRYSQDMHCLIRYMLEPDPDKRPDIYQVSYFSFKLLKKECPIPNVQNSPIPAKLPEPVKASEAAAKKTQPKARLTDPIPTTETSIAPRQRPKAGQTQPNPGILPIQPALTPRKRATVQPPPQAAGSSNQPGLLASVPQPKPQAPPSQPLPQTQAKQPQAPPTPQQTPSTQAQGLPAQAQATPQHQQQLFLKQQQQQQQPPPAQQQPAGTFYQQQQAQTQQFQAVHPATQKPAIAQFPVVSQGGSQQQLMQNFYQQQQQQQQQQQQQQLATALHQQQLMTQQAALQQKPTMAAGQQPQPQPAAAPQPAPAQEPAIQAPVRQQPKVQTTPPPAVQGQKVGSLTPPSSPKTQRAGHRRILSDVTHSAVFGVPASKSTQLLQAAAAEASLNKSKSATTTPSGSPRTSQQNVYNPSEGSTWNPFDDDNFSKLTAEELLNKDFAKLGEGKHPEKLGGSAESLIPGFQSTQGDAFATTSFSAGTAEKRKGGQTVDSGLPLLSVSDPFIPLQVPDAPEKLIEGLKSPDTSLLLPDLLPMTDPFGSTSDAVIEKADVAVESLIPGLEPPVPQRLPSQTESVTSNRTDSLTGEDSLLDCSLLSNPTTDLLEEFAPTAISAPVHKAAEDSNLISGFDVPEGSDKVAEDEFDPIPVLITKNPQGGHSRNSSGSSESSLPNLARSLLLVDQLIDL
UniProt P11086, whole entry: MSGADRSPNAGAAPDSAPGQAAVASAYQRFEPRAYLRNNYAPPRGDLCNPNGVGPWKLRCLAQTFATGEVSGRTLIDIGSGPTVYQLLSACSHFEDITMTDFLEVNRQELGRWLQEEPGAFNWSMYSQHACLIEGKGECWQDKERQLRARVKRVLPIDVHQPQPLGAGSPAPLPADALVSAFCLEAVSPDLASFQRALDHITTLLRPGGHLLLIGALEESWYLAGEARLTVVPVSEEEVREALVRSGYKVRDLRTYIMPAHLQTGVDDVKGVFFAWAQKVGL
UniProt Q13304, whole entry: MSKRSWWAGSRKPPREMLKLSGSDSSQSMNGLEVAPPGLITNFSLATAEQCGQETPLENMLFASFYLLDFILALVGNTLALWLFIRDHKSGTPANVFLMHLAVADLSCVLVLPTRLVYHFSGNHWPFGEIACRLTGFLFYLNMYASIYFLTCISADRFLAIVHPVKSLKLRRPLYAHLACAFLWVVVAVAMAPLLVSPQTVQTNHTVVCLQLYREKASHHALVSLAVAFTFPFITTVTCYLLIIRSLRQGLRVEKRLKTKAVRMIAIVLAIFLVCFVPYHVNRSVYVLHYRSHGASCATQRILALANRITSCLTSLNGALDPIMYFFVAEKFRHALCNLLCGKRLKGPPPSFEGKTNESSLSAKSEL

SMILES = CN1CC[C@H](c2c(O)cc(O)c3c(=O)cc(-c4cnccc4Cl)oc23)[C@H](O)C1; target = Cyclin-dependent kinase 2, part with cyclin A (CDK2, Homo sapiens, UniProt P24941); assay = enzyme activity, inhibitor; setting = with cyclin A, with: histone H1 substrate; IC50 = 0.314 µM
SMILES = Cc1nc(N)sc1-c1csc(Nc2ccc(N(C)C)cc2)n1; target = Protein-lysine 6-oxidase (Homo sapiens, UniProt P28300); assay = LOX activity, inhibitor; system = MDA-MB-231; IC50 = 10 µM
SMILES = Nc1cccc(S(N)(=O)=O)c1; target = PH domain leucine-rich repeat-containing protein phosphatase 2 (Homo sapiens, UniProt Q6ZVD8); assay = enzyme activity, inhibitor; IC50 = > 300 µM
SMILES = O=C(c1ccc(O)c(I)c1)N1Cc2ccccc2C1; target = HSP90AB1 (Homo sapiens, UniProt P08238); assay = binding, fluorescence polarization; setting = with: FITC-geldanamycin tracer; IC50 = > 100 µM
SMILES = N#Cc1cnc(Nc2nc3ccccc3o2)nc1-c1cccc(Br)c1; target = Grm5 (Rattus norvegicus, UniProt P31424); assay = calcium mobilization, negative allosteric modulator; setting = with: glutamate EC80; IC50 = > 30 µM
SMILES = COC(=O)[C@@H]1C(c2nc3cc(Cl)ccc3o2)=Cc2cc3c(cc2[C@H]1c1cc(OC)c(OC)c(OC)c1)OCO3; target = Tubulin alpha/beta heterodimer; assay = tubulin polymerization, inhibitor; setting = 37 °C, with: tubulin 1.2 mg/mL; IC50 = 12.1 ± 1.2 µM
SMILES = COC(=O)[C@@]1(C)C=C(C(=O)Nc2cccc(C(=O)NC34CC(Nc5nccc(-c6cccnc6)n5)(C3)C4)c2)C(=O)CC1; target = MAPK8 (Homo sapiens, UniProt P45983); assay = enzyme activity; setting = with: glutathione 10 mM; IC50 = 0.016 ± 0.002 µM
SMILES = COC(=O)/C=C/CNC(=O)c1c(C)n(C2CCCC2)c2ccc(OC)cc12; target = E3 ubiquitin-protein ligase NEDD4 (Homo sapiens, UniProt P46934); assay = ubiquitination, inhibitor, Ub-TR-FRET; setting = HECT domain; IC50 = 8.76 ± 0.47 µM
SMILES = Cc1cc(O)n2nc(C(F)(F)F)c(-c3ccccc3)c2n1; target = CGAS (Homo sapiens, UniProt Q8N884); assay = enzyme activity, inhibitor, ATP depletion; IC50 = 0.52 µM
SMILES = S=c1[nH]c(-c2ccccc2)cs1; target = MMP2 (Homo sapiens, UniProt P08253); assay = inhibitor; IC50 = > 200 µM
SMILES = COc1cc2nccc(Nc3ccc(OCc4ccc(C)cc4)cc3)c2cc1OC; target = PKN3 (Homo sapiens, UniProt Q6P5Z2); assay = binding, split-luciferase; IC50 = > 50 µM
SMILES = COc1ccc(C(=O)Nc2ccc(-c3nc4ccccc4s3)cc2)cc1; target = Moesin, with CD44 (Homo sapiens, UniProt P26038); assay = MSN-CD44 interaction, inhibitor, TR-FRET; setting = with: CD44; IC50 = > 100 µM
SMILES = Cn1c(=O)c(-c2cc(Br)ccc2N)nc2ccccc21; target = Protein diaphanous homolog 1, FH2 domain (Diaph1, Mus musculus, UniProt O08808); assay = actin assembly, inhibitor, pyrene-actin polymerization; IC50 = > 50 µM
SMILES = O=CN(O)C/C=C/P(=O)(O)O; target = 1-deoxy-D-xylulose 5-phosphate reductoisomerase, apicoplastic (DXR, Plasmodium falciparum, UniProt O96693); IC50 = 0.092 µM
SMILES = O=C(C[n+]1cccc(C(=O)Nc2ccc(Cl)cc2)c1)NCc1ccccc1; target = ALK (Homo sapiens, UniProt Q9UM73); assay = ELISA; IC50 = 35 µM
SMILES = CC(C)CNC(=O)CSc1nc2ccc(NC(=O)CSc3ccccc3Cl)cc2s1; target = ESR1; assay = reporter gene, antagonist; system = HEC-1 transfected ERα luciferase reporter; IC50 = 20 to 50 µM
SMILES = COC(=O)N1CCN(CCCOc2cccc(NC(=O)NC34CC5CC(CC(C5)C3)C4)c2)CC1; target = EPHX2 (Homo sapiens, UniProt P34913); assay = enzyme activity, inhibitor; setting = pH 7.0, 30 °C, with: CMNPC 5 µM; IC50 = 0.0011 µM
SMILES = O=C1NC(=S)NC(=O)C1=Cc1cn(Cc2ccc3ccccc3c2)c2ncc(Cl)cc12; target = DNA polymerase eta (POLH, Homo sapiens, UniProt Q9Y253); assay = DNA polymerase activity, inhibitor, fluorescence; setting = with: dTTP 100 µM; IC50 = 12 µM
SMILES = Cc1cnccc1-c1ccc(C2(c3ccc(Cl)cc3)CCNCC2)cc1; target = LATS2; assay = kinase activity, inhibitor, radiometric HotSpot; setting = with: ATP 10 µM; IC50 = 0.061 µM
SMILES = Cc1cnc(C#Cc2cccc(-c3nn(-c4nc(C(=O)O)cs4)c(CCC4CC4)c3Cc3ccc(S(N)(=O)=O)c(F)c3)c2)s1; target = LDHA (Homo sapiens, UniProt P00338); assay = enzyme activity, inhibitor; IC50 = 0.02 µM
SMILES = Fc1ccc2[nH]cc(/C=C/c3cccnc3)c2c1; target = IDO1; assay = enzyme activity, inhibitor; IC50 = 25.7 µM
SMILES = Cc1cc(-n2cc(C(N)=O)c(=O)c3cc(CCc4cnc(C)nc4)ccc32)sn1; target = Grm2 (Rattus norvegicus, UniProt P31421); assay = calcium mobilization, negative allosteric modulator; IC50 = 0.414 µM
SMILES = O=C(OC(C(F)(F)F)C(F)(F)F)N1CCc2c(Br)cccc2C1; target = ABHD6 (Homo sapiens, UniProt Q9BV23); assay = inhibitor, fluorescence; IC50 = 0.01 ± 0.0005 µM
SMILES = CC(=O)Nc1ccc(/C=C/c2c[nH]c3ccc(F)cc23)cc1; target = Amyloid-beta precursor protein, amyloid-beta peptide (APP, Homo sapiens, UniProt P05067); assay = Aβ42 oligomerisation, ELISA; IC50 = 8.5 µM
SMILES = CN1CC[C@H](c2c(O)cc(O)c3c(=O)cc(-c4ccccc4F)oc23)[C@H](O)C1; target = PRKCA (Homo sapiens, UniProt P17252); setting = ATP at Km; IC50 = > 10 µM
SMILES = C[C@H](NC(=O)c1cc(C(=O)O)cc([C@H]2CCN[C@@H]2C(=O)O)c1)C(=O)O; target = AMPA receptor (rat); assay = binding, radioligand binding; system = rat cortical synaptosomes; setting = with: [3H]AMPA; IC50 = 32 µM
SMILES = Nc1nc2c(ncn2COCCNC(=O)c2cc3cc(Br)ccc3c(Br)c2O)c(=O)[nH]1; target = SAMHD1 (Homo sapiens, UniProt Q9Y3Z3); assay = ssDNA binding, fluorescence anisotropy; setting = 1 µM protein, with: FAM-labelled 32-mer ssDNA probe; IC50 = ~5 µM
SMILES = O=C(NO)c1ccc(F)cc1; target = HDAC6 (Homo sapiens, UniProt Q9UBN7); assay = enzyme activity, inhibitor, electrophoretic mobility shift; setting = with: FAM-RHKK(Ac)-NH2 1 µM; IC50 = 0.321 µM
SMILES = Clc1ccc(C2(c3ccc(-c4ccnc5ccccc45)cc3)CCNCC2)cc1; target = LATS2; assay = kinase activity, inhibitor, radiometric HotSpot; setting = with: ATP 10 µM; IC50 = 0.42 µM
SMILES = CCN(CC)C(=O)Oc1ccccc1C=C1Cc2cc(OC)c(OC)cc2C1=O; target = Cocaine esterase (CES2, Homo sapiens, UniProt O00748); assay = inhibitor; setting = 3 min preincubation, with: fluorescein diacetate; IC50 = 0.0118 ± 0.00207 µM
SMILES = COC(C)(C)Cn1cc(-c2ccc3cc(OC4CC4)ccc3c2)c2c(N)ncnc21; target = SRC (Homo sapiens, UniProt P12931); assay = enzyme activity, inhibitor, Kinase-Glo; IC50 = > 10 µM
SMILES = CN1CCN(Cc2ccc(NC(=O)c3cncc(C#Cc4cncc5ncccc45)c3)cc2C(F)(F)F)CC1; target = Kinesin-1 heavy chain/ Tyrosine-protein kinase receptor RET (RET/KIF5B, Homo sapiens, UniProt P07949+P33176, G810C); assay = cell viability, inhibitor, CellTiter-Glo; system = Ba/F3 KIF5B-RET G810C; IC50 = 0.0321 ± 0.00141 µM
SMILES = O=C(Cn1c(-c2nccs2)nc2ccccc21)Nc1ccc2ccccc2c1; target = IMPDH2 (Homo sapiens, UniProt P12268); assay = enzyme activity, inhibitor; scale = lower bound; IC50 = ≥ 40 µM
SMILES = NC1CCN(Cc2ccn3ncnc(Nc4cccc(-c5cnco5)c4)c23)CC1; target = AAK1 (Homo sapiens, UniProt Q2M2I8); IC50 = 0.77 µM
SMILES = COC(=O)/C(=C/c1c[nH]c2ccc(F)cc12)c1ccc(F)cc1; target = IDO1; assay = enzyme activity, inhibitor; IC50 = > 50 µM
SMILES = O=C(CN1C(=O)C=CC1=O)N1CCN(c2cc(N3CCCC3)nc(N3CCCC3)n2)CC1; target = Caspase-1 (CASP1, Homo sapiens, UniProt P29466); assay = inhibitor; setting = 60 min preincubation; IC50 = 0.042 ± 0.021 µM
SMILES = N#Cc1ccc2[nH]cc(/C=C/c3cccnc3)c2c1; target = IDO1; assay = enzyme activity, inhibitor; IC50 = > 100 µM
SMILES = CC(C)CNC(=O)CSc1nc2ccc(NC(=O)CSc3cc(Cl)ccc3Cl)cc2s1; target = ESR1; assay = reporter gene, antagonist; system = HEC-1 transfected ERα luciferase reporter; IC50 = 9.1 µM
SMILES = COc1cc([C@@H]2c3cc4c(cc3[C@](O)(C3(O)CCOCC3)[C@H]3COC(=O)[C@H]23)OCO4)cc(OC)c1OC; target = Tubulin alpha/beta heterodimer; assay = tubulin polymerization, inhibitor; setting = 37 °C, with: tubulin 1.2 mg/mL; IC50 = 5.5 µM
SMILES = CC(=O)N(CC#Cc1cccc(C(N)=O)c1)C[C@H]1C[C@@H](n2ccc3c(Cl)ncnc32)[C@H](O)[C@@H]1O; target = PNMT (Homo sapiens, UniProt P11086); assay = enzyme activity, inhibitor, SAHH-coupled fluorescence; IC50 = > 100 µM
SMILES = O=C(Nc1cccc(Br)c1)C(NS(=O)(=O)c1cccs1)c1ccccc1 (centres unmarked); target = Uracil nucleotide/cysteinyl leukotriene receptor, long isoform (GPR17, Homo sapiens, UniProt Q13304); assay = calcium mobilization, antagonist; system = 1321-N1; IC50 = 8.65 ± 1.29 µM
SMILES = O=C(O)CC[C@H](NC(=O)c1cc(C(=O)O)cc([C@H]2CCN[C@@H]2C(=O)O)c1)C(=O)O; target = Glutamate receptor ionotropic, NMDA 2A, with GluN1 (Grin2a, Rattus norvegicus, UniProt Q00959); assay = ion current, antagonist, two-electrode voltage clamp; system = Xenopus oocytes; setting = GluN1/GluN2A, with: glycine 100 µM and glutamate 1 µM; IC50 = 0.61 ± 0.06 µM
SMILES = CCN(CC)Cc1cccc(/C=C/c2nc3ccc(F)cc3c(=O)n2-c2ccccc2Cl)n1; target = Gria2 (Rattus norvegicus, UniProt P19491); assay = glutamate-induced current, inhibitor, whole-cell patch clamp; system = HEK293; setting = holding -60 mV, with: 3 mM glutamate, 30 µM cyclothiazide; IC50 = 0.76 ± 0.03 µM
SMILES = CC(C)NC(=O)CSc1nc2ccc(NC(=O)CSc3ccc(Cl)c(Cl)c3)cc2s1; target = ESR1; assay = reporter gene, antagonist; system = HEC-1 transfected ERα luciferase reporter; IC50 = > 50 µM

Excerpt of the above:
SMILES = CC(=O)N(CC#Cc1cccc(C(N)=O)c1)C[C@H]1C[C@@H](n2ccc3c(Cl)ncnc32)[C@H](O)[C@@H]1O; target = PNMT (Homo sapiens, UniProt P11086); assay = enzyme activity, inhibitor, SAHH-coupled fluorescence; IC50 = > 100 µM
SMILES = O=C(NO)c1ccc(F)cc1; target = HDAC6 (Homo sapiens, UniProt Q9UBN7); assay = enzyme activity, inhibitor, electrophoretic mobility shift; setting = with: FAM-RHKK(Ac)-NH2 1 µM; IC50 = 0.321 µM
SMILES = Cc1cc(-n2cc(C(N)=O)c(=O)c3cc(CCc4cnc(C)nc4)ccc32)sn1; target = Grm2 (Rattus norvegicus, UniProt P31421); assay = calcium mobilization, negative allosteric modulator; IC50 = 0.414 µM
